Measurements gathered from unrelated publications.
Every numbered part comes from another study and shows a few of its results, in no order.

Series 1
Target: Interferon regulatory factor 5, full length, phosphomimetic (IRF5, Homo sapiens, UniProt Q13568-2, residues 1-514, K96S/S451D/S453D/S456D/S462D)
Technique: protein-binding microarray
Molecule type: double-stranded DNA, one strand shown
Sample: in vitro
Concentration: 250 nM
Notes: 60-bp whole probe
Added: salmon DNA 0.4 mg/ml
Baseline: random background probes
Reading: higher = stronger binding
The log fluorescence of `GCCTAGCACTCACATTTCACAGTTAAACTGTGCTAGGTCTTGATTCGCTTGACGCTGCTG` is reported as 1.07 z-score.
`GCCTAGCACGACGGACTGGTGACTGGGGACGTGCTAGTCTTGATTCGCTTGACGCTGCTG` gave a log fluorescence of -0.58 z-score.
The log fluorescence of `GCCTAGCACTCATTTCCCAGAACTGGAACTGTGCTAGTCTTGATTCGCTTGACGCTGCTG` is reported as 0.413 z-score.
`GCCTAGCACTTAGGACTGGACACTGTGTTAGTGCTAGTCTTGATTCGCTTGACGCTGCTG` has a log fluorescence of -0.729 z-score.

Series 2
Target: Sal-like protein 4, full length isoform B (SALL4, Homo sapiens, UniProt Q9UJQ4-2, residues 1-616)
Technique: universal PBM
Molecule type: double-stranded DNA, one strand shown
Sample: in vitro
Concentration: not given
Notes: 8-mer, flanks averaged, mean of replicates
Reading: higher = stronger binding
Residues (chain): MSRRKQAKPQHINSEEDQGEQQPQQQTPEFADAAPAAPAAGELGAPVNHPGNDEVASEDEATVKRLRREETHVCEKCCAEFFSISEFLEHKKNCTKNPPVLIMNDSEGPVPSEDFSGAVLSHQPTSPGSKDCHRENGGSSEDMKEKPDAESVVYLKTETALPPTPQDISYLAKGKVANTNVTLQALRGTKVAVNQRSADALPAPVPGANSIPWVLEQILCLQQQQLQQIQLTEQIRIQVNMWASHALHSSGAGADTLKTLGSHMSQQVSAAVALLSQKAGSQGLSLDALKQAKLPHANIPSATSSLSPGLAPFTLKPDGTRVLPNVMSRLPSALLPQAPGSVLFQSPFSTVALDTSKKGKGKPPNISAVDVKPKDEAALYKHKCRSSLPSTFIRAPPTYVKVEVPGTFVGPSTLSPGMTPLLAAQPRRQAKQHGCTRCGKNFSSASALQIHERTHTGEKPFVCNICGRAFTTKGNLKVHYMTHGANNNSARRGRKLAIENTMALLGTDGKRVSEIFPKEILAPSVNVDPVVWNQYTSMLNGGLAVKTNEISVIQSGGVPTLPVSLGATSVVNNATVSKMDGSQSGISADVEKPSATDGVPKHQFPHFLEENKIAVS
`CGACTGAA` has an E-score of -0.2.
`CGAGGCAC` gave an E-score of -0.239.
With `AGAAAAAC` the E-score was 0.119.
`GGGGAGCA` has an E-score of -0.284.
With `AGTCCCGC` the E-score was -0.195.

Series 3
Target: Histone acetyltransferase KAT6A, winged helix 1, GST fusion (KAT6A, Homo sapiens, UniProt Q92794, residues 1-85)
Technique: protein binding microarray
Molecule type: double-stranded DNA, one strand shown
Sample: in vitro
Concentration: not given
Notes: 8-mer, flanks averaged, mean of 2 arrays, mostly near background
Baseline: not given
Reading: higher = stronger binding
Construct (chain): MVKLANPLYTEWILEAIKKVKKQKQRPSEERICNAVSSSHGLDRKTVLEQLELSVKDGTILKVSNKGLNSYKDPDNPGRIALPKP
`CGCCGAAG` gave an E-score of 0.331.
For `CAGGCATA`, the E-score was -0.0963.
For `CCCAGGAA`, the E-score was -0.239.
The E-score of `CCCGGCAG` is reported as 0.125.
For `CGTAAGGC`, the E-score was 0.0994.

Single results of other studies
`PhoQ, residues 284 288 289 292 302 303 ASSHFY` has a fold induction of 10.2 (PhoP, residues 12 14 15 18 19 YHFSH (Escherichia coli, UniProt P23836); Sort-seq, refers to: YFP reporter; E. coli; PhoQ-PhoP variant library, added: 10 µM Mg2+; baseline: high Mg2+ state, higher = stronger signaling).

Excerpt of the above (series 1):
The log fluorescence of `GCCTAGCACTCATTTCCCAGAACTGGAACTGTGCTAGTCTTGATTCGCTTGACGCTGCTG` is reported as 0.413 z-score.
